Measured values from different studies.
Lines come from different studies, so protocols differ. Values joined by “and” are separate records of one study, mostly repeats; a detail may differ. Numbers after ± are the reported error.
GLP1R: Glucagon-like peptide 1 receptor (GLP1R, Homo sapiens, UniProt P43220)
Chain of UniProt P43220 (whole entry, looked up): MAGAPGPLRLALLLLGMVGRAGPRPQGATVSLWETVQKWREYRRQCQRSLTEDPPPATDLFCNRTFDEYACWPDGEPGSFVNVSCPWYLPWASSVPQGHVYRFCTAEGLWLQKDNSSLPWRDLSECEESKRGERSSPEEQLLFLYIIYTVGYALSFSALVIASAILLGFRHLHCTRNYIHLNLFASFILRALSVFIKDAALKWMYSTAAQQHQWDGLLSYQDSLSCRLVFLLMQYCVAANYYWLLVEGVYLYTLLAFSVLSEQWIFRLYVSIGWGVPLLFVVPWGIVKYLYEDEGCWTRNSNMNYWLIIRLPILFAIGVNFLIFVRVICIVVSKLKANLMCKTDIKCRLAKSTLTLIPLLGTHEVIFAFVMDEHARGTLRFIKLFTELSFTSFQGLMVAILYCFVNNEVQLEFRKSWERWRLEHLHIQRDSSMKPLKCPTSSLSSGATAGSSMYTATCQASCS
Lysophospholipase-like protein 1: Lysophospholipase-like protein 1 (Mus musculus, UniProt Q3UFF7)
Chain of UniProt Q3UFF7 (whole entry, looked up): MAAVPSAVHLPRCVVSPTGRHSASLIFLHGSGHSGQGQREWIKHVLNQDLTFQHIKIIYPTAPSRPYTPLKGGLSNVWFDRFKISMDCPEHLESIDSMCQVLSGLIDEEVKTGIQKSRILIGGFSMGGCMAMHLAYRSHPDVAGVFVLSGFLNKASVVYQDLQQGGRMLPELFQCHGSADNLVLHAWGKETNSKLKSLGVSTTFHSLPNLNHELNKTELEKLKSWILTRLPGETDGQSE
Chain of UniProt Q8TDS7 (whole entry, looked up): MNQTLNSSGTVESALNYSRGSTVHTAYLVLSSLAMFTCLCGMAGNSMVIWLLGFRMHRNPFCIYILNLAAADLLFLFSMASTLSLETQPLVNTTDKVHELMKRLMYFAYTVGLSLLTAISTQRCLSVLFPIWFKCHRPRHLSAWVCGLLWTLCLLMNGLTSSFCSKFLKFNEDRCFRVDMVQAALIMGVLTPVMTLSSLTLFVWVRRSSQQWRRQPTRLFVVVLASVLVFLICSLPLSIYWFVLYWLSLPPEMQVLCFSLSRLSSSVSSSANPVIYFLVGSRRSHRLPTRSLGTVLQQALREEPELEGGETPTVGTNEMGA
Chain of UniProt P02716 (whole entry, looked up): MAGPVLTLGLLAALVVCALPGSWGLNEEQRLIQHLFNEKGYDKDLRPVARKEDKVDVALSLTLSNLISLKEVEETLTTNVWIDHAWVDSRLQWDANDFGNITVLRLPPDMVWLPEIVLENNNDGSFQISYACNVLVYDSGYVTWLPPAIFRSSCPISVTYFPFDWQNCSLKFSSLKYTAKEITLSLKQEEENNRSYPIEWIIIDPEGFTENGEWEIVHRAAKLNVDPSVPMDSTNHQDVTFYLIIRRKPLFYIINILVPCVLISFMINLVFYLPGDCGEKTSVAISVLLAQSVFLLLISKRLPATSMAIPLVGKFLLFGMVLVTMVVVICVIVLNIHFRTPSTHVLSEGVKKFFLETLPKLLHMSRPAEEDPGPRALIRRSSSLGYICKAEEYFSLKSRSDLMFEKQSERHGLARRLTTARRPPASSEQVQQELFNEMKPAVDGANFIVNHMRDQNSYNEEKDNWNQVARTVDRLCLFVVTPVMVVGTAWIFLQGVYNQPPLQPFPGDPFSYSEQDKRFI
Chain of UniProt A7T1N0 (whole entry, unmodified, looked up): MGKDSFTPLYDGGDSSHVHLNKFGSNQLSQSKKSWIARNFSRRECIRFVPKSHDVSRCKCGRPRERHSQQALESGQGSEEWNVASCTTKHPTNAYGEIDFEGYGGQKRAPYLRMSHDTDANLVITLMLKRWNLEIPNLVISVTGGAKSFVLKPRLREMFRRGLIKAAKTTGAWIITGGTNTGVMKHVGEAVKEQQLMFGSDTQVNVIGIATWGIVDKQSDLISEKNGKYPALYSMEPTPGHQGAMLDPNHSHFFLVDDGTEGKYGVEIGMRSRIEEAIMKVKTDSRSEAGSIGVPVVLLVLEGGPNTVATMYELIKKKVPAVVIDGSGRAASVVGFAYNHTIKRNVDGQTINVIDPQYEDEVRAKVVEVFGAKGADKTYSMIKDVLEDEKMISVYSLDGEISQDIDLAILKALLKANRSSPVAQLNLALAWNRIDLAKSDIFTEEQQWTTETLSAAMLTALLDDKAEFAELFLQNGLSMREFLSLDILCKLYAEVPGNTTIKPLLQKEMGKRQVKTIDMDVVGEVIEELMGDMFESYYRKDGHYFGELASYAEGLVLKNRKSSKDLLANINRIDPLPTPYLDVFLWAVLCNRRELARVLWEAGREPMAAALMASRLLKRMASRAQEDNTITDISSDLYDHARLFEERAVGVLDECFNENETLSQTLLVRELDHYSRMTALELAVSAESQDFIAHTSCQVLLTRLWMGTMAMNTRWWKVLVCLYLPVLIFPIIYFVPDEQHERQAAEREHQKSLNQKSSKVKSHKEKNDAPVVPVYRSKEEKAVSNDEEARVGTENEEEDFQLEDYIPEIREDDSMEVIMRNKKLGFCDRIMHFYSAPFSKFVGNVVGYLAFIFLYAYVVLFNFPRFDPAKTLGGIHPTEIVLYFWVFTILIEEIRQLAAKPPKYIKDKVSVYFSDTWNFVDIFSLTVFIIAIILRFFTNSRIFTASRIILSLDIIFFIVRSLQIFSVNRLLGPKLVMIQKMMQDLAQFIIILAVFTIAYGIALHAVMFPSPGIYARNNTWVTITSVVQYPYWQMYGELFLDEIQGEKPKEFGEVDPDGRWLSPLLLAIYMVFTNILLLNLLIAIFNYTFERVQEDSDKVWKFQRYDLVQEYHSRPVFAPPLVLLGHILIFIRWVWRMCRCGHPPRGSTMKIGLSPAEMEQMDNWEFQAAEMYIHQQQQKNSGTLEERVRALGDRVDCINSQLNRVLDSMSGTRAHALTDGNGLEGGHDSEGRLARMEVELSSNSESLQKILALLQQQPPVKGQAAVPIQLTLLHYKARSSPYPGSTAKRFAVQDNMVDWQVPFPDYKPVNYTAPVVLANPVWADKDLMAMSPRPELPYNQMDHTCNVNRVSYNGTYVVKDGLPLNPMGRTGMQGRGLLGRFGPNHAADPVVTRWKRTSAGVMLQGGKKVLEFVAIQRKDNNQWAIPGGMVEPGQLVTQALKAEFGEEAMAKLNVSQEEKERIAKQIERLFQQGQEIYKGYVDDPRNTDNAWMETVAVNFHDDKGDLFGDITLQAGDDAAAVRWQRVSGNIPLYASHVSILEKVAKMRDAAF
Chain of UniProt O49686 (whole entry, looked up): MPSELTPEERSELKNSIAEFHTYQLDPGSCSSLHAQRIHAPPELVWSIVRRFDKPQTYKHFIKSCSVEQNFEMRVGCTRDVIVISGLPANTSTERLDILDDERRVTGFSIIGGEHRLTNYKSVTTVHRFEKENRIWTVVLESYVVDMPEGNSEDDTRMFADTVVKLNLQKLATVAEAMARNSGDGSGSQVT
Chain of UniProt Q9H228 (whole entry, looked up): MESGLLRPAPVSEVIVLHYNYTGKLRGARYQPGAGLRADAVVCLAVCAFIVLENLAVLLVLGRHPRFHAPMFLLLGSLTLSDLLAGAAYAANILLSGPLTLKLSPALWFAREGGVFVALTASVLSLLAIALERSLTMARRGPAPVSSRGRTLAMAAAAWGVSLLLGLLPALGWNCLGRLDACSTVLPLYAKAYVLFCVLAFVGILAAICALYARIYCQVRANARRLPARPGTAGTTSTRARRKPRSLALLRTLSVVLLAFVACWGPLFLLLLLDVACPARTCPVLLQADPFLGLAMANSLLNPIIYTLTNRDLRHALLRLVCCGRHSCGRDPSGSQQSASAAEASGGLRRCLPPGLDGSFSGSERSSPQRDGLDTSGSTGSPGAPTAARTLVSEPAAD
Chain of UniProt P0DMS8 (whole entry, unmodified, looked up): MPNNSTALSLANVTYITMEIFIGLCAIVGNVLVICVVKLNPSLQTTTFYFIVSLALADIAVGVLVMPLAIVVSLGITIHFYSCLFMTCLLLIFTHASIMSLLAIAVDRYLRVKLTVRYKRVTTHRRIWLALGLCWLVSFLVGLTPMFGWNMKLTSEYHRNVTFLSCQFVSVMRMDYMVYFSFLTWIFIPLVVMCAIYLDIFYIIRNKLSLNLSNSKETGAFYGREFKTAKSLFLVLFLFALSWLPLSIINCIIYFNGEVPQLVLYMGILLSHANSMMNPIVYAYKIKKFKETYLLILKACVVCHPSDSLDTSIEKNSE
Chain of UniProt P25103 (whole entry, looked up): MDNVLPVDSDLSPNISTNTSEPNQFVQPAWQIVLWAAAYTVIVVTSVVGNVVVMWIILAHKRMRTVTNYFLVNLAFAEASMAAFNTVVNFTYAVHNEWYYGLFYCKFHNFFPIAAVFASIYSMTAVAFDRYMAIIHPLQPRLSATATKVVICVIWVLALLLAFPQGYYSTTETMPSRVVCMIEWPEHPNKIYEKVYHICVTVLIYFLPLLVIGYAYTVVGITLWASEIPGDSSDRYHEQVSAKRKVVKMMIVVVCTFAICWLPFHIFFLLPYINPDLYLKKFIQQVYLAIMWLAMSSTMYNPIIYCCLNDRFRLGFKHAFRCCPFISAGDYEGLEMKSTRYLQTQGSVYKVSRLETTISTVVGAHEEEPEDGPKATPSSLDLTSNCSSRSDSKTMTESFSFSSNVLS
Chain of UniProt Q92847 (whole entry, looked up): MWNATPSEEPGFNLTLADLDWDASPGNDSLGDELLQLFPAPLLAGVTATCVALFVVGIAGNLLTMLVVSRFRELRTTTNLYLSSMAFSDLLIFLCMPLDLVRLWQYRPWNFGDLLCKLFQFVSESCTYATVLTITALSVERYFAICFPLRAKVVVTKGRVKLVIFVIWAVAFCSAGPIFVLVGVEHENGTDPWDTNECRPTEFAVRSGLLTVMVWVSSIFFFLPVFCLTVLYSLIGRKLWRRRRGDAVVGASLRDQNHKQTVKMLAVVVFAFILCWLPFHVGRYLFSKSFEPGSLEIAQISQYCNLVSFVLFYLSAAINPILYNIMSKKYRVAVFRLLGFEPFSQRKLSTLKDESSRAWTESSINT

SMILES	target	assay	system	setting	EC50
O=C(Cc1ccc(OCc2ccccc2)cc1)NC1(C(=O)O)CCN(C(=O)c2ccc(-c3cccc(Cl)c3)cc2)CC1	Sphingosine 1-phosphate receptor 5 (S1PR5, Homo sapiens, UniProt Q9H228)	cAMP, agonist, luciferase	–	–	> 10 µM
O=C(NC[C@@H](Cc1ccc(F)cc1)N1CCC(O)(C(F)(F)F)CC1)C1(c2ccc(Cl)cc2)CCCC1	Transient receptor potential cation channel subfamily A member 1 (TRPA1, Homo sapiens, UniProt O75762, V875M)	–	–	–	0.015 µM
C[N+]1(C)CCCC1	Chrnd/Chrna1/Chrne (Mus musculus, UniProt P02716+P04756+P20782)	channel open probability, agonist	mouse	wild type	11000 µM
CC[C@H](C)[C@H](NC(=O)[C@H](Cc1ccccc1)NC(=O)[C@H](CCC(=O)O)NC(=O)[C@H](CCCCN)NC(=O)[C@H](C)NC(=O)[C@H](C)NC(=O)[C@H](CCC(N)=O)NC(=O)CNC(=O)[C@H](CCC(=O)O)NC(=O)[C@H](CC(C)C)NC(=O)[C@H](Cc1ccc(O)cc1)NC(=O)[C@H](CO)NC(=O)[C@H](CO)NC(=O)[C@@H](NC(=O)[C@H](CC(=O)O)NC(=O)[C@H](CO)NC(=O)[C@@H](NC(=O)[C@H](Cc1ccccc1)NC(=O)[C@@H](NC(=O)CNC(=O)[C@H](CCC(=O)O)NC(=O)[C@H](C)NC(=O)[C@H](Cc1c[nH]cn1)NCC(C)C)[C@@H](C)O)[C@@H](C)O)C(C)C)C(=O)N[C@@H](C)C(=O)N[C@@H](Cc1c[nH]c2ccccc12)C(=O)N[C@@H](CC(C)C)C(=O)N[C@H](C(=O)N[C@@H](CCCCN)C(=O)NCC(=O)N[C@@H](CCCNC(=N)N)C(N)=O)C(C)C	GLP1R	reporter gene, agonist, luciferase	–	–	3.98e-06 µM
Cc1nc2ccc(S(=O)(=O)n3nc(CCc4ccc(Cl)cc4)nc3N)cc2s1	Lysophospholipase-like protein 1	enzyme activity, activator, gel-based ABPP	–	–	2.6 µM
Nc1ncnc2c1ncn2[C@@H]1O[C@H](COP(=O)(O)OP(=O)(O)OC[C@H]2OC(O)[C@H](O)[C@@H]2O)[C@@H](O)[C@H]1OP(=O)(O)O (stereo partly shown)	TRPM2 (Nematostella vectensis, UniProt A7T1N0, R160C)	agonist	–	–	0.094 ± 0.001 µM
[N-]=[N+]=Nc1c(C2CC2)cc(CC(=O)NC2(C(=O)O)CCCCC2)cc1C1CC1	Abscisic acid receptor PYR1 (PYR1, Arabidopsis thaliana, UniProt O49686)	phosphatase activity recovery, antagonist	–	with: HAB1, ABA 5000 nM	6.96 ± 1.63 µM
CNc1ncnc2c1ncn2C1OC(CO)C(O)C1O (stereo not shown)	Adenosine receptor A3 (ADORA3, Homo sapiens, UniProt P0DMS8, V169A)	G protein activation, agonist	–	–	0.018 µM
CC[C@H](C)[C@H](NC(=O)[C@H](Cc1ccccc1)NC(=O)[C@H](CCC(=O)O)NC(=O)[C@H](CCCCN)NC(=O)[C@H](C)NC(=O)[C@H](C)NC(=O)[C@H](CCC(N)=O)NC(=O)CNC(=O)[C@H](CCC(=O)O)NC(=O)[C@H](CC(C)C)NC(=O)[C@H](Cc1ccc(O)cc1)NC(=O)[C@H](CO)NC(=O)[C@H](CO)NC(=O)[C@@H](NC(=O)[C@H](CC(=O)O)NC(=O)[C@H](CO)NC(=O)[C@@H](NC(=O)[C@H](Cc1ccccc1)NC(=O)[C@@H](NC(=O)CNC(=O)[C@H](CCC(=O)O)NC(=O)[C@H](C)NC(=O)[C@H](Cc1c[nH]cn1)NCc1ccc(C2(C(F)(F)F)N=N2)cc1)[C@@H](C)O)[C@@H](C)O)C(C)C)C(=O)N[C@@H](C)C(=O)N[C@@H](Cc1c[nH]c2ccccc12)C(=O)N[C@@H](CC(C)C)C(=O)N[C@H](C(=O)N[C@@H](CCCCN)C(=O)NCC(=O)N[C@@H](CCCNC(=N)N)C(N)=O)C(C)C	GLP1R	reporter gene, agonist, luciferase	–	–	3.98e-05 µM and 4.2e-05 µM
Nc1nc(NCc2ccc(Cl)cc2)nn1S(=O)(=O)c1ccc2c(c1)CCO2	Lysophospholipase-like protein 1	enzyme activity, activator, gel-based ABPP	–	–	> 20 µM
CSCC[C@H](NC(=O)[C@H](CC(C)C)NC(=O)CNC(=O)[C@H](Cc1ccccc1)NC(=O)[C@H](Cc1ccccc1)NC(=O)[C@@H](N)CCC(N)=O)C(N)=O	Substance-P receptor (TACR1, Homo sapiens, UniProt P25103)	cAMP, agonist	–	–	3.98 µM
CC(C)(c1cccc2ccccc12)n1cc(CNc2ccc(C(=O)NCCC(=O)O)cc2)nn1	GLP1R	agonist	human cells	–	1.26 µM
CC1=NC(C)C(C)S1 (stereo not shown)	uncharacterized protein (Bos taurus, UniProt E1BM68)	cAMP level, agonist, cAMP luminescence	HEK293 cells	–	126 ± 13.6 µM
COc1ccc(C(=O)c2c(C(=O)NCCCN(C)C)oc3ccc(Cl)cc3c2=O)cc1OC	Growth hormone secretagogue receptor type 1 (GHSR, Homo sapiens, UniProt Q92847)	endosomal trafficking, bystander BRET	–	60 min	0.126 µM
Nc1nc(NCc2ccc(Cl)cc2)nn1S(=O)(=O)C1CCCCC1	Lysophospholipase-like protein 1	enzyme activity, activator, gel-based ABPP	–	–	> 20 µM
COc1ccc(C2(C(=O)N3CCC(Nc4nc5ccccc5c(=O)[nH]4)CC3)CC2)cc1	MRGPRD, part with Gi1 (Homo sapiens, UniProt Q8TDS7)	Gi1 dissociation, agonist, BRET2	–	–	0.0282 µM

Some of these lines once more:
SMILES	target	assay	system	setting	EC50
COc1ccc(C(=O)c2c(C(=O)NCCCN(C)C)oc3ccc(Cl)cc3c2=O)cc1OC	Growth hormone secretagogue receptor type 1 (GHSR, Homo sapiens, UniProt Q92847)	endosomal trafficking, bystander BRET	–	60 min	0.126 µM
Nc1nc(NCc2ccc(Cl)cc2)nn1S(=O)(=O)C1CCCCC1	Lysophospholipase-like protein 1	enzyme activity, activator, gel-based ABPP	–	–	> 20 µM
Cc1nc2ccc(S(=O)(=O)n3nc(CCc4ccc(Cl)cc4)nc3N)cc2s1	Lysophospholipase-like protein 1	enzyme activity, activator, gel-based ABPP	–	–	2.6 µM
